Results of several laboratories.
Compare with care: the assays were run in different laboratories.
Organism: Staphylococcus aureus

Structure (SMILES) | assay | system | conditions | MIC
CN(C)c1cc(CNC2CCCC2)c(O)c2c1C[C@H]1C[C@H]3[C@H](N(C)C)C(O)=C(C(N)=O)C(=O)[C@@]3(O)C(O)=C1C2=O | – | MRSA 5, Tet M, 50% mouse serum | – | 2 µg/mL
CC(C)CS[C@H]1[C@H](O)[C@@H](N)[C@@H](O[C@H]2[C@H](O[C@@H]3O[C@H](CO)[C@@H](O[C@H]4O[C@@H](CN)[C@@H](O)[C@H](O)[C@H]4N)[C@H]3O)[C@@H](O)[C@H](N)C[C@@H]2N)O[C@@H]1CO | – | methicillin-resistant | – | 2 µg/mL
CNC(CC(C)C)C(=O)NC1C(=O)NC(CC(N)=O)C(=O)NC2C(=O)NC3C(=O)NC(C(=O)NC(C(=O)O)c4cc(O)cc(O)c4-c4cc3ccc4O)C(O)c3ccc(c(Cl)c3)Oc3cc2cc(c3OC2OC(CO)C(O)C(O)C2OC2CC(C)(NC(=O)CCCCCCCCC[n+]3ccccc3)C(O)C(C)O2)Oc2ccc(cc2Cl)C1O (centres unmarked) | agar dilution | MRSA clinical isolate MRSA3 | – | 64 µg/mL
CCSC1COC(=O)N1/N=C/c1ccc([N+](=O)[O-])o1 (centres unmarked) | microbial growth, broth dilution | ATCC29213 | 18 h | 12.5 µg/mL
CC(CCCOC(=O)CCC[N+](C)(C)C)C1CCC2C3CCC4CC(OC(=O)CCC[N+](C)(C)C)CCC4(C)C3CC(OC(=O)CCC[N+](C)(C)C)C12C (centres unmarked) | microbial growth, broth dilution | ATCC29213 | 16 h | 2 µg/mL
CCN(CC)CCCN1/C(=C/c2cc[n+](C)c3ccccc23)Sc2ccccc21 | microbial growth, broth dilution | ATCCBAA1720 MRSA | – | 16 µg/mL
Oc1c(Br)ccc2cccnc12 | microbial growth, agar dilution | ATCC25923 | – | 35.7 µM
CC(C)C[C@H](NC(=O)[C@H](CC(N)=O)NC(=O)[C@H](CCCNC(=N)N)NC(=O)[C@@H](CC(C)C)NC(=O)[C@H](Cc1ccc(-c2ccccc2)cc1)NC(=O)[C@H](CC(=O)O)NC(=O)[C@H](CCCCN)NC(=O)[C@@H](CC(C)C)NC(=O)[C@H](CCCNC(=N)N)NC(=O)[C@H](CCC(N)=O)NC(=O)[C@@H](NC(=O)[C@@H](CC(C)C)NC(=O)[C@H](CCCNC(=N)N)NC(=O)[C@H](CCCCN)NC(=O)[C@H](Cc1ccc(-c2ccccc2)cc1)NC(=O)CN)C(C)C)C(=O)N[C@H](C(N)=O)C(C)C | broth microdilution | USA300 LAC, MRSA | – | 3.1 µM
CCCCO[C@H]1[C@H](O)[C@@H](N)[C@@H](O[C@H]2[C@H](O[C@@H]3O[C@H](CO)[C@@H](O[C@H]4O[C@@H](CN)[C@@H](O)[C@H](O)[C@H]4N)[C@H]3O)[C@@H](O)[C@H](N)C[C@@H]2N)O[C@@H]1CO | broth microdilution | MRSA isolate AG 039 | – | 16 to 32 µg/mL
C/C(=N\Nc1nc(-c2ccc(Cl)cc2)cs1)c1ccc2c(c1)sc1nc(=O)c(C#N)cn12 | microbial growth, broth dilution | – | – | < 35 µg/mL
C=CCO[C@H]1[C@H](O)[C@@H](N)[C@@H](O[C@H]2[C@H](O[C@@H]3O[C@H](CO)[C@@H](O[C@H]4O[C@@H](CN)[C@@H](O)[C@H](O)[C@H]4N)[C@H]3O)[C@@H](O)[C@H](N)C[C@@H]2N)O[C@@H]1CO | broth microdilution | MRSA isolate AG 044 | – | 8 to 16 µg/mL
COCCOC(=O)NCc1cc(N(C)C)c2c(c1O)C(=O)C1=C(O)[C@]3(O)C(=O)C(C(N)=O)=C(O)[C@@H](N(C)C)[C@@H]3C[C@@H]1C2 | microbial growth, broth dilution | – | – | 4 µg/mL
COc1cc(Cc2cnc(N)nc2N)cc(/C=C/C(=O)N2N=Cc3ccccc3C2C=C(C)C)c1OC (centres unmarked) | microbial growth, broth dilution | ATCC29213 | pH 7 | 0.06 to 0.125 µg/mL
Oc1c(Br)cc(Br)c2nc3cc(I)ccc3nc12 | broth microdilution | MRSA 44 | – | 0.05 µM
CN(C)c1cc(CNC(=O)OCC(C)(C)C)c(O)c2c1C[C@H]1C[C@H]3[C@H](N(C)C)C(O)=C(C(N)=O)C(=O)[C@@]3(O)C(O)=C1C2=O | – | MRSA 5, Tet M ribosome protection | – | 4 µg/mL
CCOC1C(C)C2C(C=CC3C(C)C=CC=CC(C)OC(=O)C(C)C(=O)C(Cl)(Cl)C(=O)C32)CC1(C)O (centres unmarked) | microbial growth, broth dilution | NEWMAN | – | > 3.2 µg/mL
CNC(CC(C)C)C(=O)NC1C(=O)NC(CC(N)=O)C(=O)NC2C(=O)NC3C(=O)NC(C(=O)NC(C(=O)O)c4cc(O)cc(O)c4-c4cc3ccc4O)C(O)c3ccc(c(Cl)c3)Oc3cc2cc(c3OC2OC(CO)C(O)C(O)C2OC2CC(C)(NC(=O)CCCCCCCC[N+](C)(C)Cc3ccccc3)C(O)C(C)O2)Oc2ccc(cc2Cl)C1O (centres unmarked) | agar dilution | MRSA clinical isolate MRSA3 | – | 64 µg/mL
CC(C)C(O)C(NC(=O)[C@H](Cc1ccc(O)cc1)NC(=O)C(Cc1ccc(O)cc1)[N+](C)(C)C)C(=O)N[C@@H](C)C(=O)O (some centres unmarked) | – | ATCC 29213 | – | > 100 µM
Cc1cccc([N+](=O)[O-])c1NC(=O)CSc1nc2ccccc2c(=O)n1-c1ccc(S(N)(=O)=O)cc1 | – | methicillin-resistant | 24 h, 37 °C | 10 µg/mL
N=C(N)NCCC[C@H](NC(=O)[C@H](Cc1c[nH]c2ccccc12)NC(=O)[C@H](CCC(N)=O)NC(=O)[C@H](Cc1c[nH]c2ccccc12)NC(=O)[C@H](CCCNC(=N)N)NC(=O)[C@@H](N)CCCNC(=N)N)C(=O)NCCCC[C@H](NC(=O)[C@H](CCCNC(=N)N)NC(=O)[C@H](Cc1c[nH]c2ccccc12)NC(=O)[C@H](CCC(N)=O)NC(=O)[C@H](Cc1c[nH]c2ccccc12)NC(=O)[C@H](CCCNC(=N)N)NC(=O)[C@@H](N)CCCNC(=N)N)C(=O)NCCCCCC(=O)N[C@@H](CSSC[C@H](NC(=O)CCCCCNC(=O)[C@H](CCCCNC(=O)[C@H](CCCNC(=N)N)NC(=O)[C@H](Cc1c[nH]c2ccccc12)NC(=O)[C@H](CCC(N)=O)NC(=O)[C@H](Cc1c[nH]c2ccccc12)NC(=O)[C@H](CCCNC(=N)N)NC(=O)[C@@H](N)CCCNC(=N)N)NC(=O)[C@H](CCCNC(=N)N)NC(=O)[C@H](Cc1c[nH]c2ccccc12)NC(=O)[C@H](CCC(N)=O)NC(=O)[C@H](Cc1c[nH]c2ccccc12)NC(=O)[C@H](CCCNC(=N)N)NC(=O)[C@@H](N)CCCNC(=N)N)C(N)=O)C(N)=O | broth microdilution | ATCC 25923 | 24 h, 37 °C | 22 µM
CO[C@@H](C(N)=O)[C@H](NC(=O)c1ccc(NC(=O)c2ccc([N+](=O)[O-])cc2)cc1)C(=O)Nc1ccc(C(=O)Nc2ccc(C(=O)Nc3ccc(C(=O)O)cc3)c(O)c2OC(C)C)cc1 | microbial growth | ATCC29213 | – | 0.5 µg/mL
O=C1c2ccccc2C(=O)c2c1ccc1c2C(C(=O)NCc2ccccc2)C(=O)C1c1ccccc1 (centres unmarked) | microbial growth | – | – | 64 µg/mL

Structure (SMILES) | assay | system | conditions | MIC
COc1ccccc1C(=O)c1c(-n2c(C(=O)c3ccccc3OC)cc(Cl)c2Cl)c(Cl)c(Cl)n1C | microbial growth, broth dilution | NCTC8325 | 20 h | > 64 µg/mL
CCc1nc(N)nc(N)c1C#CC(C)c1cc(-c2cc(C)nc(C)c2)ccc1Cl (centres unmarked) | microbial growth, broth dilution | ATCC43300 | 18 h | 0.312 µg/mL
O=C(O)c1ccc(-n2cc(/C=N/Nc3cccc(Cl)c3F)c(-c3ccc4ccccc4c3)n2)cc1 | microbial growth | ATCC25923 | – | 1.56 µg/mL
C=C(NC(=O)C(=C)NC(=O)c1csc(C2=NC3c4csc(n4)C4NC(=O)c5csc(n5)C(C(C)(O)C(C)O)NC(=O)C5CSC(=N5)C(=CC)NC(=O)C(C(C)O)NC(=O)c5csc(n5)C3(CC2)NC(=O)C(C)NC(=O)C(=C)NC(=O)C(Cc2ccc(O)cc2)NC(=O)C(C(C)CC)NC2C=Cc3c(C(C)O)cc(nc3C2O)C(=O)OC4C)n1)C(N)=O (centres unmarked) | broth microdilution | ATCC 10537 MRSA | 18 h, 37 °C | 0.22 µg/mL
CC(C)CNCc1cc(N(C)C)c2c(c1O)C(=O)C1=C(O)[C@]3(O)C(=O)C(C(N)=O)=C(O)[C@@H](N(C)C)[C@@H]3C[C@@H]1C2 | microbial growth, broth dilution | – | – | 1 µg/mL
COc1cccc(C2Nc3ccccc3C3=[O+][Cu-2]4([Cl])[O]c5c(cccc5OC)C=[N+]4N32)c1O (centres unmarked) | broth microdilution | ATCC 29213 | 24 h, 37 °C | 64 µg/mL
CN(C)c1cc(CNCc2ccncc2)c(O)c2c1C[C@H]1C[C@H]3[C@H](N(C)C)C(O)=C(C(N)=O)C(=O)[C@@]3(O)C(O)=C1C2=O | microbial growth, broth dilution | – | – | 2 µg/mL
CCCCCCCCCc1nc2ccccc2c(=O)n1O | broth microdilution | RN6390B | – | 100 µM
CNC(CC(C)C)C(=O)NC1C(=O)NC(CC(N)=O)C(=O)NC2C(=O)NC3C(=O)NC(C(=O)NC(C(=O)O)c4cc(O)cc(O)c4-c4cc3ccc4O)C(O)c3ccc(c(Cl)c3)Oc3cc2cc(c3OC2OC(CO)C(O)C(O)C2OC2CC(C)(NC(=O)CCCCCC[N+](C)(C)C)C(O)C(C)O2)Oc2ccc(cc2Cl)C1O (centres unmarked) | agar dilution | MRSA clinical isolate MRSA4 | – | 64 µg/mL
CN(C)c1cc(CNCc2ccccc2)c(O)c2c1C[C@H]1C[C@H]3[C@H](N(C)C)C(O)=C(C(N)=O)C(=O)[C@@]3(O)C(O)=C1C2=O | – | MRSA 5, Tet M, 50% human serum | – | 32 µg/mL
S=c1n(CN2CCN(c3ccccc3)CC2)nc(C23CC4CC(CC(C4)C2)C3)n1-c1ccccc1 | two-fold dilution | IFO 3060 | 24 h, 36 °C | 8 µg/mL
Cc1cc2[nH]c(C(=O)Nc3ccccc3C)c(CN3CCOCC3)c2s1 | – | ATCC 29213, LB broth | 20 h | > 200 µM
Cc1csc(NCc2cc(N(C)C)c3c(c2O)C(=O)C2=C(O)[C@]4(O)C(=O)C(C(N)=O)=C(O)[C@@H](N(C)C)[C@@H]4C[C@@H]2C3)n1 | – | MRSA 5, Tet M ribosome protection | – | 16 µg/mL
CCOC(=O)c1ccc2c(c1)n(CC)[c]([Au-]([Cl])([Cl])[Cl])[n+]2CC | broth dilution | MRSA DSM 11822 | 20 h, 37 °C | 1.8 µM
Oc1c(Br)cc(Br)c2nc3c(C(F)(F)F)cc(C(F)(F)F)cc3nc12 | broth microdilution | MRSA 44 | – | 0.05 µM
COCO[C@H]1[C@H](O)[C@@H](N)[C@@H](O[C@H]2[C@H](O[C@@H]3O[C@H](CO)[C@@H](O[C@H]4O[C@@H](CN)[C@@H](O)[C@H](O)[C@H]4N)[C@H]3O)[C@@H](O)[C@H](N)C[C@@H]2N)O[C@@H]1CO | broth microdilution | MRSA isolate AG 038 | – | 16 to 32 µg/mL
CCCCCCCCCCN1C(=O)/C(=N\NC(N)=S)c2cc(C)ccc21 | broth microdilution | 29213 | 18 h, 37 °C | > 192 µg/mL
CNC(CC(C)C)C(=O)NC1C(=O)NC(CC(N)=O)C(=O)NC2C(=O)NC3C(=O)NC(C(=O)NC(C(=O)O)c4cc(O)cc(O)c4-c4cc3ccc4O)C(O)c3ccc(c(Cl)c3)Oc3cc2cc(c3OC2OC(CO)C(O)C(O)C2OC2CC(C)(NC(=O)CCCCCC[N+]3(C)CCOCC3)C(O)C(C)O2)Oc2ccc(cc2Cl)C1O (centres unmarked) | agar dilution | MRSA clinical isolate MRSA4 | – | 32 µg/mL
NC[C@@H]1O[C@H](O[C@H]2[C@@H](O)[C@H](O[C@@H]3[C@@H](O)[C@H](N)C[C@H](N)[C@H]3O[C@H]3O[C@H](CO)[C@@H](OCCO)[C@H](O)[C@H]3N)O[C@@H]2CO)[C@H](N)[C@@H](O)[C@@H]1O | broth microdilution | MRSA isolate AG 045 | – | 16 to 32 µg/mL
CC1CCN(CCCN2/C(=C/c3cc(/C=C/c4c[nH]c5ccccc45)[n+](C)c4ccccc34)Sc3ccccc32)CC1 | microbial growth, broth dilution | MRSA | – | 32 µg/mL
CN(C)c1cc(CN2CCc3ccccc3C2)c(O)c2c1C[C@H]1C[C@H]3[C@H](N(C)C)C(O)=C(C(N)=O)C(=O)[C@@]3(O)C(O)=C1C2=O | – | MRSA 5, Tet M, 50% mouse serum | – | > 64 µg/mL
CCCCCCCCCc1nc2cc(F)c(F)cc2c(=O)n1OC | broth microdilution | RN6390B | – | > 100 µM

A few entries again:
Structure (SMILES) | assay | system | conditions | MIC
Oc1c(Br)ccc2cccnc12 | microbial growth, agar dilution | ATCC25923 | – | 35.7 µM
CC(C)C(O)C(NC(=O)[C@H](Cc1ccc(O)cc1)NC(=O)C(Cc1ccc(O)cc1)[N+](C)(C)C)C(=O)N[C@@H](C)C(=O)O (some centres unmarked) | – | ATCC 29213 | – | > 100 µM
CCCCCCCCCCN1C(=O)/C(=N\NC(N)=S)c2cc(C)ccc21 | broth microdilution | 29213 | 18 h, 37 °C | > 192 µg/mL
CN(C)c1cc(CNC2CCCC2)c(O)c2c1C[C@H]1C[C@H]3[C@H](N(C)C)C(O)=C(C(N)=O)C(=O)[C@@]3(O)C(O)=C1C2=O | – | MRSA 5, Tet M, 50% mouse serum | – | 2 µg/mL
CCCCCCCCCc1nc2cc(F)c(F)cc2c(=O)n1OC | broth microdilution | RN6390B | – | > 100 µM
S=c1n(CN2CCN(c3ccccc3)CC2)nc(C23CC4CC(CC(C4)C2)C3)n1-c1ccccc1 | two-fold dilution | IFO 3060 | 24 h, 36 °C | 8 µg/mL
O=C1c2ccccc2C(=O)c2c1ccc1c2C(C(=O)NCc2ccccc2)C(=O)C1c1ccccc1 (centres unmarked) | microbial growth | – | – | 64 µg/mL
